Measurements from different studies.
Protocols differ between the studies behind these lines. Values joined by “and” are separate records of one study, mostly repeats; a detail may differ. Numbers after ± are the reported error.

| SMILES | test | test system | conditions | how to read | measurement | result |
| --- | --- | --- | --- | --- | --- | --- |
| c1ccc(-c2n[nH]cc2-c2ccnc3ccccc23)nc1 | kinase binding, competitor, MIB/MS competition, item: RIM8 | Candida albicans cell lysate | 10 µM | baseline: DMSO | log2 fold change | 1.59 |
| CN(C(=O)n1cnc(-c2ccc[n+]([O-])c2)c1)C1CCCCC1 | – | mice, formalin paw test | 1 mg/kg, late phase, together with: anandamide 5 mg/kg i.p. | baseline: anandamide alone, direction not given | change in licking score | -65% |
| O=C(O)CNC(=O)Cc1ccccc1 | – | ventricular cardiomyocytes, C57BL/6 mouse | dose not given, 0.476 s | – | sarcomere length | 1.67 µm |
| COc1cc(Nc2ncc3c(n2)-c2ccc(Cl)cc2C(c2c(F)cccc2OC)=NC3)ccc1C(=O)O | – | mouse, KT-10 Wilms tumour xenograft | 10.4 mg/kg | direction not given | median response score | 1 |
| NNC(=O)c1ccncc1 | ELISA | Mycobacterium marinum-infected mice, skin | intraduodenal, 10 mg/kg three times daily, 3 days post infection | – | IL-1β level | 66.2 pg/mL and 68.4 pg/mL and 75.5 pg/mL |
| COc1ccccc1[C@H](Cn1c(=O)n(C(C)(C)C(=O)O)c(=O)c2c(C)c(-c3ncco3)sc21)OC1CCOCC1 | [1-13C]acetate infusion, isotopomer analysis | overweight or obese healthy men, plasma VLDL-TG palmitate | oral, 200 mg single dose, 2 h post-dose, together with: oral fructose | – | fractional hepatic DNL | 5.9 % new palmitate |
| NCC(=O)Nc1cncc(-c2nn3c(=O)cc(N4CCNCC4)nc3s2)c1 | ADP-induced platelet aggregation, light transmission aggregometry | human stable CAD patients on aspirin, platelets ex vivo | 0.05 mg/kg, 180 min post dose, together with: 20 µM ADP | baseline: placebo difference | inhibition of platelet aggregation | -2.68% |
| COc1cccc(C2NCCc3cc(O)c(O)cc32)c1 (stereo not drawn) | ferrozine | cell-free | 100 µM, DMSO solvent | – | Fe2+ chelation | 92.4 ± 1.85% |
| N#Cc1ccc2c(c1)[C@H]1CCCN(C(=O)c3ccc4[nH]cnc4c3)[C@H]1C2 | meal tolerance test | human, Phase II trial | 80 mg once daily, day 28, AUC0-2 h, adjusted mean | baseline: baseline | C-peptide AUC change | 0.14 pmol/h/L |
| C[C@H]1C[C@H]2CSC(N)=N[C@@]2(c2nc(NC(=O)c3ccc(OC(F)F)cn3)cs2)CO1 | item: Aβx-40 | healthy adults, plasma | 12 mg single dose, 24 h post-dose | baseline: placebo | percent change from baseline | -49.2% |
| CC(=O)Oc1cc2c(s1)CCN(C(C(=O)C1CC1)c1ccccc1F)C2 (stereo not drawn) | light transmittance aggregometry | human patients, platelet-rich plasma | dose not given, 1 h, together with: ADP 20 µM | baseline: patients | patients with IPA above 90% | 0% |
| COC[C@@H](c1ccc(C(F)(F)F)cc1)N1CCN(C2(C)CCN(C(=O)c3c(C)ncnc3C)CC2)C[C@@H]1C | – | HIV-1 infected patients, plasma | 5 mg, week 16, with optimized background regimen | baseline: baseline | change in HIV-1 RNA | -1.95 log10 copies/mL |
| CC(C)c1c(C(=O)Nc2ccccc2)c(-c2ccccc2)c(-c2ccc(F)cc2)n1CC[C@@H](O)C[C@@H](O)CC(=O)O | Oil Red O staining | ApoE-/- mouse on high-fat diet | oral gavage, 20 doses every three days, 72 h | – | aortic arch plaque area | 4.62 ± 0.81% |
| COc1nc(-c2cc(C)c(N[C@@H](C)c3cc(F)cc(F)c3)nn2)ccc1-n1cnc(C)c1 | item: Aβ42 | rat Sprague-Dawley male, CSF | oral, 25 mg/kg daily for 9 days, 4 h after dose | baseline: vehicle | change in level | 80% |
| Cc1cc(-c2nc(C(=O)Nc3cc4oc(N5CCOCC5)nc4nc3N3CC[C@@H](O)C3)co2)ccn1 | immunohistochemistry, item: phospho-NF-κB | mouse, intracranial B16-F10 tumour | dose not given | baseline: total cells | pNF-κB p65 positive cells | 4.3% |
| CC(C)(O)c1cnc2ncc(-c3ccc(F)c(-c4c(F)cccc4C#N)c3)n2n1 | suppressed responding increase, conflict procedure | rhesus monkey | intravenous, anxiolysis model | – | minimum effective dose | ≥ 0.1 mg/kg |
| C=CCn1c(=O)c2cnc(Nc3ccc(N4CCN(C)CC4)cc3)nc2n1-c1ccc2c(n1)[C@@](O)(CC)CC2 | – | MCF7 xenograft, BALB/c nude mice | oral, 80 mg/kg once daily x 22, day 28 | baseline: vehicle | tumour growth inhibition | 133% |
| CSCCNc1nc(SCCC(F)(F)F)nc2c1ncn2[C@@H]1O[C@H](COP(=O)(O)OP(=O)(O)C(Cl)(Cl)P(=O)(O)O)[C@@H](O)[C@H]1O | platelet aggregation, light transmission aggregometry | human patients, platelet-rich plasma | dose not given, 15 min, together with: TRAP 15 µM | – | inhibition | 19.1 ± 16.3% |

| SMILES | test | test system | conditions | how to read | measurement | result |
| --- | --- | --- | --- | --- | --- | --- |
| CCCCCCCCCCCCCCCCCC1NCCc2cc(O)c(O)cc21 (stereo not drawn) | ferrozine | DMSO | 100 µM | – | Fe2+ chelation | 22.4 ± 1.53% |
| CN(C)C(=O)c1cc2cnc(Nc3ccc(N4CCNCC4)cn3)nc2n1C1CCCC1 | RNA-seq GSEA, item: HALLMARK_DNA_REPAIR | MB002 tumour | concentration not given, in vivo | baseline: vehicle, direction not given | GSEA enrichment score | 0.409 |
| Cc1n[nH]c2ccc(-c3cc(OC[C@@H](N)Cc4ccccc4)cnc3-c3ccoc3)cc12 | kinase binding, competitor, MIB/MS competition, item: ATG1 | Candida albicans cell lysate | 1 µM | baseline: DMSO | log2 fold change | -0.147 |
| CC[C@H](C)[C@H](NC(=O)[C@H](C)NC(=O)CNC(=O)[C@H](Cc1ccccc1)NC(=O)[C@H](CC(N)=O)NC(=O)[C@H](CC(N)=O)NC(=O)[C@H](CO)NC(=O)[C@H](CO)NC(=O)[C@H](Cc1c[nH]cn1)NC(=O)[C@@H](NC(=O)[C@H](CC(C)C)NC(=O)[C@H](Cc1ccccc1)NC(=O)[C@H](CC(N)=O)NC(=O)[C@H](C)NC(=O)[C@H](CC(C)C)NC(=O)[C@H](CCCNC(=N)N)NC(=O)[C@H](CCC(N)=O)NC(=O)[C@@H](NC(=O)[C@H](C)NC(=O)[C@@H]1CSSC[C@H](NC(=O)[C@@H](N)CCCCN)C(=O)N[C@@H](CC(N)=O)C(=O)N[C@@H]([C@@H](C)O)C(=O)N[C@@H](C)C(=O)N[C@@H]([C@@H](C)O)C(=O)N1)[C@@H](C)O)C(C)C)C(=O)N[C@@H](CC(C)C)C(=O)N[C@@H](CO)C(=O)N[C@@H](CO)C(=O)N[C@H](C(=O)N[C@@H](CC(N)=O)C(=O)N[C@H](C(=O)NCC(=O)N[C@@H](CO)C(=O)N[C@@H](CC(N)=O)C(=O)N[C@H](C(=O)N[C@@H](Cc1ccc(O)cc1)C(N)=O)[C@@H](C)O)C(C)C)[C@@H](C)O | ELISA | isolated mouse islets | 10 µM, 24 h, unit not given | baseline: control | total insulin content | 0.565 and 0.537 |
| Nc1nc2cc(-c3ccc4ncc(C(=O)N5CCOCC5)n4c3)ccc2o1 | RECIST v1.1 | human advanced solid tumours, PIK3CA mutant | concentration not given, stable ≥3 months, all schedules | – | patients with stable disease | 28% |
| N#Cc1ccc2c(-c3ccncc3)c(-c3ccc(F)cc3)nn2c1 | kinase binding, competitor, MIB/MS competition, item: CKA1 | Candida albicans cell lysate | 100 nM | baseline: DMSO | log2 fold change | -0.589 |
| C[C@H]1[C@H](OC(=O)CCC(=O)O)O[C@@H]2O[C@@]3(C)CC[C@H]4[C@H](C)CC[C@@H]1[C@@]24OO3 | – | MOLM-13 xenograft mice | 120 mg/kg once daily, 5 days | – | median survival | 17 days |
| COc1cc2cc(-c3ccc(CC(=O)Nc4cc(C(C)(C)C(F)(F)F)no4)cn3)cnc2cc1OC | RECIST v1.1 | RET-altered advanced solid tumour patients | oral, 75 mg once daily, phase I | – | partial response as best response | 23% |
| O=C1Nc2cc3[nH]nc(-c4ccncc4)c3cc2CN1Cc1ccccc1 | RECIST v1.1 | human, relapsed or refractory advanced solid tumours | intravenous, 0.45 mg/kg, pooled schedules | – | progressive disease, best response | 100% |
| Cc1cc(C)c(CNC(=O)c2cc(Cl)c3c(c2C)O[C@@](C)([C@H]2CC[C@H](N(C)C)CC2)O3)c(=O)[nH]1 | – | human relapsed/refractory PTCL | concentration not given, best overall response | – | stable disease | 15.4% |
| CC1(C)CCC(CN2CCN(c3ccc(C(=O)NS(=O)(=O)c4ccc(NCC5CCOCC5)c([N+](=O)[O-])c4)c(Oc4cnc5[nH]ccc5c4)c3)CC2)=C(c2ccc(Cl)cc2)C1 | cell killing | canine blood CD3+ T cells, dog 32 | 24 h | – | EC50 | 167 nM |
| COc1cccc2c(N3CCC(CCP(=O)(O)O)CC3)ncnc12 | – | mouse, EMT6 tumour, serum | 50 mg/kg | – | IFN-γ concentration | ~5 pg/mL |
| NC1(C(=O)N[C@@H](CCO)c2ccc(Cl)cc2)CCN(c2nc[nH]c3nccc2-3)CC1 | – | human mCRPC patients | dose not given, together with: enzalutamide | – | CTC non-response rate | 62.5% |
| O=C(COc1ccc(Cl)cc1)NC12CC(c3nnc([C@H]4C[C@@H](OC(F)(F)F)C4)o3)(C1)C2 | – | healthy human, PBMC | oral, 800 mg single dose, day 1, 4 h post-dose, median, together with: sodium arsenite ex vivo | baseline: baseline | ATF4 protein change | -51.1% |
| OC(CCN1CCCCC1)(c1ccccc1)C1CC2C=CC1C2 (stereo not drawn) | resting-state EEG | healthy elderly humans | oral, 4 mg, eyes closed, LS mean | – | EEG Beta1-power Pz-O2 | 4.3 µV² |
| CC(C)NCC(O)c1ccc(O)c(O)c1 (stereo not drawn) | – | ventricular cardiomyocytes, C57BL/6 mouse | dose not given, 0.064 s | – | sarcomere length | 1.72 µm |
| CC(C)[C@H](C(=O)Nc1ccc(C(=O)NO)cc1)c1ccccc1 | – | human | 1.7 4 weeks after dosing | higher = worse hearing | pure-tone average, left ear | 77 dB |
| C[C@@H](NC(=O)N1C(=O)[C@H](Cc2ccnc(N)c2)[C@H]1C(=O)O)C1CCCCC1 | – | human, plasma | continuous intravenous infusion, 2.25 mg/kg/h, days 1 to 6 of 5-day infusion, median | – | time to maximum prothrombin time | 5 h |

A few entries again:
| SMILES | test | test system | conditions | how to read | measurement | result |
| --- | --- | --- | --- | --- | --- | --- |
| C[C@H]1C[C@H]2CSC(N)=N[C@@]2(c2nc(NC(=O)c3ccc(OC(F)F)cn3)cs2)CO1 | item: Aβx-40 | healthy adults, plasma | 12 mg single dose, 24 h post-dose | baseline: placebo | percent change from baseline | -49.2% |
| CC(=O)Oc1cc2c(s1)CCN(C(C(=O)C1CC1)c1ccccc1F)C2 (stereo not drawn) | light transmittance aggregometry | human patients, platelet-rich plasma | dose not given, 1 h, together with: ADP 20 µM | baseline: patients | patients with IPA above 90% | 0% |
| COC[C@@H](c1ccc(C(F)(F)F)cc1)N1CCN(C2(C)CCN(C(=O)c3c(C)ncnc3C)CC2)C[C@@H]1C | – | HIV-1 infected patients, plasma | 5 mg, week 16, with optimized background regimen | baseline: baseline | change in HIV-1 RNA | -1.95 log10 copies/mL |
